# Assay results collected from several papers.
# Sequences of proteins named here, by UniProt entry; tags and fusion partners are left off. Residues count along the entry.
# UniProt Q9NV35, whole entry: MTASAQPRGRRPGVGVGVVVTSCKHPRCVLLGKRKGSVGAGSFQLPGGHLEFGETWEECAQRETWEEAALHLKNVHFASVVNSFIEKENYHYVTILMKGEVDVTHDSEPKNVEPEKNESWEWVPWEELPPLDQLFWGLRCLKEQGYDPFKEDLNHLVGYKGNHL
# UniProt O94788, 27-518 limits assumed: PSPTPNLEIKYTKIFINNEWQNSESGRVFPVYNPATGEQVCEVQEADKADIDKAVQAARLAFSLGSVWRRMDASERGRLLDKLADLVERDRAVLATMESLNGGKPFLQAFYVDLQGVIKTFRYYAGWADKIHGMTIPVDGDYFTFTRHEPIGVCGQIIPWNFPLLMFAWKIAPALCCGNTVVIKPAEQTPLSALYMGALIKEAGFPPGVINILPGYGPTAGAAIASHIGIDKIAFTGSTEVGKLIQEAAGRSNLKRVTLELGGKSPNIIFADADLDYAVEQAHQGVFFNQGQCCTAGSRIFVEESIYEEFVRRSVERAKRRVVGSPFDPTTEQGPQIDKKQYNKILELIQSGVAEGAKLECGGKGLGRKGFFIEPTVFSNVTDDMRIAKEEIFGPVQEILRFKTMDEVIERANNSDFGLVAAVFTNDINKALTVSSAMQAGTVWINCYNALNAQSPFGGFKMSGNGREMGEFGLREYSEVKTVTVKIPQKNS
# UniProt P26045, 646-901 limits assumed: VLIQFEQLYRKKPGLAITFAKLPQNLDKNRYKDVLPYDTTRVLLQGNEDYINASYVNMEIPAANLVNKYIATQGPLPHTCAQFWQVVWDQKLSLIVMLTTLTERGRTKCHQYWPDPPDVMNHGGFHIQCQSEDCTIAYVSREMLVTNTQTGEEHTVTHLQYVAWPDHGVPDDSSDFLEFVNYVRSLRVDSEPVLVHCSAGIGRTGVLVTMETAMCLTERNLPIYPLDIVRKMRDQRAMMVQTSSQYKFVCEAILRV
# UniProt Q9Y6W6, 321-464 limits assumed: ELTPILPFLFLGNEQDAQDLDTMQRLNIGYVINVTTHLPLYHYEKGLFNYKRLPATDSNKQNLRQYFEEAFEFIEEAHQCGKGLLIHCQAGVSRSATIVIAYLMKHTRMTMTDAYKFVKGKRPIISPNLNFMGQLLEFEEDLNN
# Protocols differ between the studies behind these lines. Numbers after ± are the reported error.
# NUDT15: Nucleotide triphosphate diphosphatase NUDT15 (NUDT15, Homo sapiens, UniProt Q9NV35)
SMILES,target or system,assay,system,conditions,scale,quantity,result
CCOc1ccsc1C(=O)N1CCN(c2ccc([N+](=O)[O-])c(N3CCCC3)c2)CC1,"Retinal dehydrogenase 2 (ALDH1A2, Homo sapiens, UniProt O94788)","thermal stability, differential scanning fluorimetry",,"200 µM, added: NAD 1 mM",,ΔTm,8.8 ± 0.09 °C
CC(=O)N[C@@H](Cc1c[nH]cn1)C(=O)N[C@@H](CC(=O)O)C(=O)NCC(=O)N[C@@H](CC(C)C)C(=O)N[C@@H](Cc1cc(=O)oc2cc(OP(=O)(O)O)ccc12)C(=O)N[C@@H](CCC(N)=O)C(=O)NCC(=O)N[C@@H](CC(C)C)C(=O)N[C@@H](CO)C(=O)N[C@H](C(=O)N[C@@H](C)C(=O)N[C@H](C(=O)N[C@@H](CCCCN)C(=O)N[C@@H](CC(=O)O)C(=O)N[C@H](C(=O)N[C@@H](Cc1ccc(OP(=O)(O)O)cc1)C(=O)N[C@@H](CC(=O)O)C(=O)N[C@@H](C)C(=O)N[C@@H](CC(C)C)C(=O)N[C@@H](Cc1c[nH]cn1)C(N)=O)[C@@H](C)O)[C@@H](C)O)[C@@H](C)O,"Tyrosine-protein phosphatase non-receptor type 3 (PTPN3, Homo sapiens, UniProt P26045)","peptide hydrolysis, substrate",,"pH 6.0, 37 °C, TCR zeta-chain ITAM peptide",,Km,14.4 µM
O=C(c1ccc(Br)cc1)N1CCN(S(=O)(=O)c2ccc3[nH]c(=O)oc3c2)CC1,NUDT15,"enzyme activity, inhibitor, malachite green",,added: dGTP,,IC50,46 nM
CC[C@H](C)[C@H](NC(=O)[C@H](C)NC(=O)[C@H](CCC(=O)O)NC(=O)[C@H](CCC(=O)O)NC(=O)[C@H](CC(C)C)NC(=O)[C@H](CCCCN)NC(=O)[C@H](CCCCN)NC(=O)[C@H](CCSC)NC(=O)[C@H](CCC(=O)O)NC(=O)[C@H](Cc1ccc(O)cc1)NC(=O)[C@H](CCC(=O)O)NC(=O)[C@H](CC(C)C)NC(=O)[C@H](CC(=O)O)NC(=O)[C@H](CC(C)C)NC(=O)[C@H](Cc1ccccc1)NC(=O)[C@@H](NC(=O)[C@@H](NC(=O)[C@H](CC(N)=O)NC(=O)[C@@H](NC(=O)[C@H](CCC(N)=O)NC(=O)[C@H](CC(=O)O)NC(=O)[C@H](CC(C)C)NC(=O)[C@@H](N)CO)[C@@H](C)CC)C(C)C)[C@@H](C)O)C(=O)N[C@@H](CCCCN)C(=O)N[C@@H](CCCCN)C(=O)N[C@@H](CC(C)C)C(=O)N[C@@H](CCC(=O)O)C(=O)N[C@@H](CCC(=O)O)C(=O)N[C@@H](CO)C(=O)N[C@@H](Cc1ccc(O)cc1)C(=O)N[C@H](C(=O)N[C@@H](CC(=O)O)C(=O)N[C@@H](CC(C)C)C(=O)N[C@@H](CCCCN)C(=O)N[C@@H](CCC(=O)O)C(=O)N[C@@H](CC(C)C)C(=O)O)[C@@H](C)CC,SARS-CoV-2 Alpha pseudovirus,"pseudovirus infection, inhibitor, luciferase",Caco-2,24 h,,IC50,1120 nM
CC(=O)N[C@@H](Cc1c[nH]cn1)C(=O)N[C@H](C(=O)NCC(=O)N[C@@H](Cc1ccccc1)C(=O)N[C@@H](CC(C)C)C(=O)N[C@H](C(=O)N[C@@H](CCC(=O)O)C(=O)N[C@@H](Cc1cc(=O)oc2cc(OP(=O)(O)O)ccc12)C(=O)N[C@H](C(=O)N[C@@H](C)C(=O)N[C@H](C(=O)N[C@@H](CCCNC(=N)N)C(=O)N[C@@H](Cc1c[nH]c2ccccc12)C(N)=O)[C@@H](C)O)C(C)C)[C@@H](C)O)[C@@H](C)O,"Dual specificity protein phosphatase 10 (Homo sapiens, UniProt Q9Y6W6)","peptide hydrolysis, substrate",,"pH 6.0, 37 °C, 50 nM enzyme, added: ERK activation-loop peptide",,Km,15.5 µM
O=C(c1cccc(Cl)c1)N1CCN(c2ccc(F)cc2)CC1,Saccharomyces cerevisiae,"cell growth, doubling time",wild type,,,IC50,> 200000 nM
O=C(NC1CCN(c2ncnc3[nH]cnc23)CC1)c1cccc(NS(=O)(=O)c2ccc(Cl)cc2)c1,SARS-CoV-2,,Wuhan-Hu-1,200 µM,baseline: untreated infected cells,relative infection,15.3%
O=C(c1ccc(F)cc1)N1CCN(c2ccccc2)CC1,Saccharomyces cerevisiae,"cell growth, doubling time",SEC14 -136 allele,Sec14 reduced ~7-fold,,IC50,> 200000 nM
O=C(c1ccccc1Br)N1CCN(S(=O)(=O)c2ccc3[nH]c(=O)oc3c2)CC1,NUDT15,"enzyme activity, inhibitor, malachite green",,added: dGTP,,IC50,174 nM

# Repeated from above:
SMILES,target or system,assay,system,conditions,scale,quantity,result
CC[C@H](C)[C@H](NC(=O)[C@H](C)NC(=O)[C@H](CCC(=O)O)NC(=O)[C@H](CCC(=O)O)NC(=O)[C@H](CC(C)C)NC(=O)[C@H](CCCCN)NC(=O)[C@H](CCCCN)NC(=O)[C@H](CCSC)NC(=O)[C@H](CCC(=O)O)NC(=O)[C@H](Cc1ccc(O)cc1)NC(=O)[C@H](CCC(=O)O)NC(=O)[C@H](CC(C)C)NC(=O)[C@H](CC(=O)O)NC(=O)[C@H](CC(C)C)NC(=O)[C@H](Cc1ccccc1)NC(=O)[C@@H](NC(=O)[C@@H](NC(=O)[C@H](CC(N)=O)NC(=O)[C@@H](NC(=O)[C@H](CCC(N)=O)NC(=O)[C@H](CC(=O)O)NC(=O)[C@H](CC(C)C)NC(=O)[C@@H](N)CO)[C@@H](C)CC)C(C)C)[C@@H](C)O)C(=O)N[C@@H](CCCCN)C(=O)N[C@@H](CCCCN)C(=O)N[C@@H](CC(C)C)C(=O)N[C@@H](CCC(=O)O)C(=O)N[C@@H](CCC(=O)O)C(=O)N[C@@H](CO)C(=O)N[C@@H](Cc1ccc(O)cc1)C(=O)N[C@H](C(=O)N[C@@H](CC(=O)O)C(=O)N[C@@H](CC(C)C)C(=O)N[C@@H](CCCCN)C(=O)N[C@@H](CCC(=O)O)C(=O)N[C@@H](CC(C)C)C(=O)O)[C@@H](C)CC,SARS-CoV-2 Alpha pseudovirus,"pseudovirus infection, inhibitor, luciferase",Caco-2,24 h,,IC50,1120 nM
